{"data": "Measurements collected from several papers", "B1": "aspC A106G/A218G/F210I/I29V/I33V/I68L/I71L/N30D/N64T/S135A/T100S/V136I/V375I (Escherichia coli, UniProt P00509); chain MFENITAAPADPILGLADLFRADERPGKVDLGVGVYKDETGKTPVLTSVKKAEQYLLENETTKTYLGLDGLPEFGRCTQELLFGKGSALINDKRARTAQSPGGTGGLRVAADFLAKNTSVKRVWVSNPSWPNHKAIFNSAGLEVREYAYYDAENHTLDFDALINSLNEAQAGDVVLFHGCCHNPTGIDPTLEQWQTLAQLSVEKGWLPLIDFAYQGFGRGLEEDAEGLRAFAAMHKELIVASSYSKNFGLYNERVGACTLVAADSETVDRAFSQMKAAIRANYSNPPAHGASVVATILSNDALRAIWEQELTDMRQRIQRMRQLFVNTLQEKGANRDFSFIIKQNGMFSFSGLTKEQVLRLREEFGVYAVASGRINVAGMTPDNMAPLCEAIVAVL", "B2": "enzyme Y157F (Mus musculus, UniProt P60334); chain MERTELLKPRTLADLIRILHELFAGDEVNVEEVQAVLEAYESNPAEWALYAKFDQYRYTRNLVDQGNGKFNLMILCWGEGHGSSIHDHTDSHCFLKLLQGNLKETLFDWPDKKSNEMIKKSERTLRENQCAYINDSIGLHRVENVSHTEPAVSLHLFSPPFDTCHAFDQRTGHKNKVTMTFHSKFGIRTPFTTSGSLENN", "B3": "enzyme (Plasmodium falciparum, UniProt C0H484); chain MVREAHELLDGSRPIPIDKITYELSQNIILAFDNHENINNKDIQIEIEGRVGLVIDKNKNRIKLPINTDAIIENNYSDFQAGIDRESFEYLLDYFHNMTLKKRLSIRNNDNNNNNMDNNNNNMDNNNNIHIHNSGNNTNQTHSYDKNADDNKPTCNYSYDKKNACIYDFLELKTTKSIDKYYVIKNNNSRIRTTTYLNDDNKQETESMMIQSLQKDNLNIWNVYTGNNYDYFDDDEEDDDDDYNNNNNNNNGDTGTKTNIATNNTHGLTTSKSQHIYNNLVDKNDSIDYRISINIEYTKPISKLYLSKNTPVHERLKERTTFINTYLGLQVDMTKIKTKNNELYEVEIEIPSKTIFKAMSNLRNKKDSNYLHFICSNLVNNIRGICSQLNVFKKSKHMLKNTMITKLNNNSNNQNNLSLLPNHPNDDTISSKEKEKFKKYIHSVLPIVGDY", "B4": "enzyme (UniProt P0DY30); chain ESPWIGVHFMVYTDKMLDQLAEQLPALSKRGVTHLILEINYHFAYKSHPELAPTNGITVVGAKKFADTARAHHIEIIPQINCLGHQSWKQNNAALLKHYPQFDETPGAYPDNKDIYCRSWCPQHPEVNRVVFALIDELIDAFEAKAFHVGMDEVFLIASEHCERCRGGDPAALFAKAVNDLHGHIVGKRGVQMLMWGDRLLDAEQTGYGKWEASGNGTAPAIDRIPKDIVLCDWHYEKRDRYPSLAVFLDKGFRVWPAGWKKPEAAEAFAAAARGCQNPRLLGYLCTTWGAVEIPNLADWPALLRPIEKIIAP", "B5": "enzyme H476A (Methanosarcina mazei, UniProt Q8PVB1); chain MSEQRSVPLREHLLALKPCRHGGLIQETSETYGIPENEILDFSANFNPLGSPFDYPENGLNFEDIIKKSCGKLLEYPDNRYVEFREAAARFVGLGVTPQSIVPGNGSTEIVRLVVESVIEKGDKVLLPWPTFGEYEMQCRITGAEPVCPSQEEVNTLPDEVLEEAKILFICNPNNPTGKLRTREELKVLAERCREHKTLLYVDEAFIELSDPSQSVADLPAENNYVFVMRSLTKDFAIPGIRMGFGIAPPAMADILNTARLSWNLGAIANNTGIALLNIEGGIDSPYLKKAREMILKEGETLKAKIDRIRGFEAGEVNVNFILVDVSKFMLNSSELTARLAARGVLVRDCVSFHGLGKNYIRVAVRTEKENDRLIAAIGDVITEWGREQAKNELQHVIEKASEEGIGGRKTCEYYPCHFEGQNCTFCFCPFYPCENEKTGGKWIQSSRGGRVWSCVDCHLVHKKEIAQKILDCLMAEGDTDELVKVAWKEVMEPIL", "B6": "ADSL R303C (Homo sapiens, UniProt P30566); chain MAAGGDHGSPDSYRSPLASRYASPEMCFVFSDRYKFRTWRQLWLWLAEAEQTLGLPITDEQIQEMKSNLENIDFKMAAEEEKRLRHDVMAHVHTFGHCCPKAAGIIHLGATSCYVGDNTDLIILRNALDLLLPKLARVISRLADFAKERASLPTLGFTHFQPAQLTTVGKRCCLWIQDLCMDLQNLKRVRDDLRFRGVKGTTGTQASFLQLFEGDDHKVEQLDKMVTEKAGFKRAFIITGQTYTRKVDIEVLSVLASLGASVHKICTDIRLLANLKEMEEPFEKQQIGSSAMPYKRNPMRSECCCSLARHLMTLVMDPLQTASVQWFERTLDDSANRRICLAEAFLTADTILNTLQNISEGLVVYPKVIERRIRQELPFMATENIIMAMVKAGGSRQDCHEKIRVLSQQAASVVKQEGGDNDLIERIQVDAYFSPIHSQLDHLLDPSSFTGRASQQVQRFLEEEVYPLLKPYESVMKVKAELCL", "B7": "enzyme (Schizosaccharomyces pombe, UniProt P78804); chain MSTPYEPEFQQAYKEIVGSIESSKLFEVHPELKRVLPIISIPERVLEFRVTWEDDKGNCRVNTGYRVQFNSALGPYKGGLRFHPSVNLSILKFLGFEQIFKNALTGLPMGGGKGGSDFDPKGKSDNEIRRFSQAFMRQLFRYIGPQTDVPAGDIGVTGFVVMHMFGEYKRLRNEYSGVVTGKHMLTGGSNIRPEATGYGVVYYVKHMIEHRTKGAETLKGKRVAISGSGNVAQYAALKCIQEGAIVKSISDSKGVLIAKTAEGLVPEEIHEIMALKEKRASIADSASLCKKHHYIAGARPWTNVGEIDIALPCATQNEVSGEEAAALIKQGCRYVAEGSNMGSSAEAVEVFEKSRASGEGCWLAPGKAANAGGVAVSGLEMAQNAQFSTWTHAEVDAKLAGIMQNIFEQSTDVASKYCDSGSNNIPSLVDGANIAGFLKVATAMQAVGDWW", "B8": "SCO6712 (Streptomyces coelicolor, UniProt Q9XAL8); chain AKGITARTAPAGGEVRHLKMYAEKLADGQMGYGFEKGKASVPGPLIEVNEGDTLHIEFTNTMDVRASLHVHGLDYEISSDGTAMNKSDVEPGGTRTYTWRTHKPGRRDDGTWRPGSAGYWHYHDHVVGTEHGTGGIRNGLYGPVIVRRKGDVLPDATHTIVFNDMTINNRKPHTGPDFEATVGDRVEIVMITHGEYYHTFHMHGHRWADNRTGILTGPDDPSRVIDNKITGPADSFGFQIIAGEGVGAGAWMYHCHVQSHSDMGMVGLFLVKKPDGTIPGYEPHEHGGATAKSGESGEPTGGAAAHEHEH", "B9": "RPT2 (Arabidopsis thaliana, UniProt Q682S0); chain MATEGKNPINMNSMSSSLARTGQWVFSQDIPTDVVVEVGEANFSLHKFMLVAKSNYIRKLIMESKDSDVTRINLSDIPGGPEIFEKAAKFCYGVNFEITVQNVAALHCAAEFLQMTDKYCDNNLAGRTQDFLSQVALSSLSGAIVVLKSCEILLPISRDLGIVRRCVDVVGAKACNEAMFPCRTPPNWWTEELCILDVDFFSDVVSSMKQRGVKPSSLASAIITYTEKSLRDLVRDHSGRGVKYSDPGDNESDERSQQRDLVQSIVSLLPSDKGLFPVNFLCSLLRCAVFLDTSLTCKNELEKRISVVLEHVSVDDLLIPSFTYDGERLLDLDSVRRIISAFVEKEKNVGVFNGGDFNRGVCSVSLQRVAKTVDSYLAEIATYGDLTISKFNAIANLVPKSARKSDDDLYRAIDIFLKAHPNLDEIEREKVCSSMDPLKLSYDARLHASQNKRLPVNIVLHALYYDQLKLRSGVAEQEERAVVVLPEALKTRSQLQADTTLAKENEALRSELMKMKMYVSDMQKNKNGAGASSSNSSSLVSSKKSKHTFFSSVSKKLGKLNPFKNGSKDTSHIDEDLGGVDITKPRRRRFSIS", "note": "± gives the spread as reported."}
{"Substance": "B1", "tested on": "N[C@@H](Cc1ccccc1)C(=O)O", "assay": "steady-state kinetics", "conditions": "pH 7.5, 25 °C, with: PLP 20 µM", "endpoint": "kcat", "result": "150 s⁻¹"}
{"Substance": "B2 (enzyme Y157F)", "tested on": "N[C@@H](CS)C(=O)O", "assay": "steady-state kinetics", "conditions": "pH 7.5, 37 °C", "endpoint": "kcat", "result": "> 0.41 s⁻¹"}
{"Substance": "gdh N192S/N97F (Bacillus subtilis)", "tested on": "NC(=O)c1ccc[n+]([C@@H]2O[C@H](COP(=O)(O)OP(=O)(O)OC[C@H]3O[C@@H](n4cnc5c(N)ncnc54)[C@H](O)[C@@H]3O)[C@@H](O)[C@H]2O)c1", "assay": "steady-state kinetics", "conditions": "pH 7, 55 °C", "endpoint": "kcat", "result": "15.8 ± 0.552 s⁻¹"}
{"Substance": "B3 (enzyme)", "tested on": "Nc1ncnc2c1ncn2[C@@H]1O[C@H](COP(=O)(O)OP(=O)(O)OP(=O)(O)O)[C@@H](O)[C@H]1O", "assay": "steady-state kinetics", "conditions": "with: Mn2+", "endpoint": "kcat", "result": "0.43 ± 0.01 s⁻¹"}
{"Substance": "B4 (enzyme)", "tested on": "CC(=O)N[C@H]1[C@H](Oc2ccc([N+](=O)[O-])cc2)O[C@H](CO)[C@@H](O)[C@@H]1O[C@@H]1O[C@H](CO)[C@H](O)[C@H](O)[C@H]1O", "assay": "steady-state kinetics", "conditions": "pH 6, 50 °C", "endpoint": "kcat", "result": "4.6 ± 0.25 s⁻¹"}
{"Substance": "B5 (enzyme H476A)", "tested on": "Nc1ncnc2c1ncn2[C@@H]1O[C@H](COP(=O)(O)OP(=O)(O)OP(=O)(O)O)[C@@H](O)[C@H]1O", "assay": "steady-state kinetics", "conditions": "pH 8.5, 25 °C, apparent, anoxic, with: L-Thr 10 mM", "endpoint": "kcat", "result": "0.008 ± 0.001 s⁻¹"}
{"Substance": "B6 (ADSL R303C)", "tested on": "O=C(O)C[C@H](Nc1ncnc2c1ncn2[C@@H]1O[C@H](COP(=O)(O)O)[C@@H](O)[C@H]1O)C(=O)O", "assay": "steady-state kinetics", "conditions": "pH 7.4, 25 °C", "endpoint": "kcat", "result": "2.36 ± 0.04 s⁻¹"}
{"Substance": "enzyme (Salmonella enterica, UniProt P0A2K1)", "tested on": "N[C@@H](CO)C(=O)O", "assay": "steady-state kinetics", "conditions": "pH 7.8, 22 °C, apparent", "endpoint": "kcat", "result": "4.23 ± 0.4 s⁻¹"}
{"Substance": "enzyme (UniProt A0A6P1C6J0)", "tested on": "C[C@@H]1O[C@H](OP(=O)(O)OP(=O)(O)OC[C@H]2O[C@@H](n3cnc4c(=O)[nH]c(N)nc43)[C@H](O)[C@@H]2O)[C@@H](O)[C@H](O)[C@@H]1O", "assay": "steady-state kinetics", "conditions": "pH 7.5, 25 °C, apparent", "endpoint": "kcat", "result": "4.1 ± 0.15 s⁻¹"}
{"Substance": "B7 (enzyme)", "tested on": "NC(=O)C1=CN([C@@H]2O[C@H](COP(=O)(O)OP(=O)(O)OC[C@H]3O[C@@H](n4cnc5c(N)ncnc54)[C@H](O)[C@@H]3O)[C@@H](O)[C@H]2O)C=CC1", "assay": "steady-state kinetics", "conditions": "pH 7, 30 °C, apparent", "endpoint": "kcat", "result": "140 ± 4 s⁻¹"}
{"Substance": "human ME2 K81R", "assay": "enzyme activity, activator, NADH absorbance", "system": "recombinant enzyme", "conditions": "range over 0 to 5 mM, pH 7.4", "how to read": "relative to: wild type", "endpoint": "activation fold", "result": 1.1}
{"Substance": "B8 (SCO6712)", "tested on": "CCn1c(=NN=c2sc3cc(S(=O)(=O)O)ccc3n2CC)sc2cc(S(=O)(=O)O)ccc21", "assay": "steady-state kinetics", "conditions": "pH 7, 37 °C, NaCl 150 mM, with: O2 cosubstrate", "endpoint": "kcat", "result": "1.9 ± 0.2 s⁻¹"}
{"Substance": "B9 (RPT2)", "tested on": "Nc1nc2c(ncn2[C@@H]2O[C@H](COP(=O)(O)OP(=O)(O)OP(=O)(O)O)[C@@H](O)[C@H]2O)c(=O)[nH]1", "assay": "steady-state kinetics", "conditions": "pH 7.5, 30 °C", "endpoint": "kcat", "result": "0.0478 s⁻¹"}
{"Substance": "UAUUCUUUU (ssRNA)", "tested on": "U2AF2 148-342 (Homo sapiens, UniProt P26368)", "assay": "sequencing of bound RNA", "system": "RNA", "conditions": "motif only", "endpoint": "Kd", "result": "8.79 µM"}
{"Substance": "enzyme (Bacteroides fragilis, UniProt Q5LAD6)", "tested on": "C[C@@H]1O[C@@H](Oc2ccc([N+](=O)[O-])cc2Cl)[C@@H](O)[C@H](O)[C@@H]1O", "assay": "steady-state kinetics", "conditions": "pH 8.4, 40 °C", "endpoint": "kcat", "result": "134 s⁻¹"}
{"Substance": "enzyme (Cryptosporidium parvum, UniProt Q8IS93)", "tested on": "NC(=O)C1=CN([C@@H]2O[C@H](COP(=O)(O)OP(=O)(O)OC[C@H]3O[C@@H](n4cnc5c(N)ncnc54)[C@H](OP(=O)(O)O)[C@@H]3O)[C@@H](O)[C@H]2O)C=CC1", "assay": "steady-state kinetics", "conditions": "pH 7.4, with: DTNB 4 mM", "endpoint": "kcat", "result": "56.6 ± 3.36 s⁻¹"}
{"Substance": "HNL C81L/E79H/G176S/H103V/K236M/N104T/T11G/V106F (Hevea brasiliensis)", "tested on": "CC(=O)Oc1ccc([N+](=O)[O-])cc1", "assay": "steady-state kinetics", "conditions": "pH 7.2, 22 °C", "endpoint": "kcat", "result": "0.155 ± 0.005 s⁻¹"}
